Assay results gathered from unrelated publications.
Every numbered part comes from another study and shows a few of its results, in no order.

Set 1
Target: UBE2W UBC core domain (UniProt Q96B02)
Technique: yeast two-hybrid
Sample: yeast
Setting: mostly zero background
Baseline: not given
Direction: higher = stronger interaction
B1: NEURL1 RING domain (UniProt O76050); chain VTPGLGQWSDECTICYEHAVDTVIYTCGHMCLCYACGLRLKKALHACCPICRRPIKDIIKT
B2: MKRN1 RING domain (UniProt Q9UHC7); chain FAVQRSKDMVCGICMEVVYEKANPSERRFGILSNCNHTYCLKCIRKWRSAKQFESKIIKSCPECRITSNFVIPSE
B3: RNF38 RING domain (UniProt Q9H0F5); chain PNNHQSEQTLCVVCMCDFESRQLLRVLPCNHEFHAKCVDKWLKANRTCPICRADASEVHRDS
B4: TRIM40 RING domain (UniProt Q6P9F5); chain LQKDNQEEGVCPICQESLKEAVSTNCGHLFCRVCLTQHVEKASASGVFCCPLCRKPCSEEVLG
B5: RNF111 RING domain (UniProt Q6ZNA4); chain EGTEEDTEEKCTICLSILEEGEDVRRLPCMHLFHQVCVDQWLITNKKCPICRVDIEAQLPSE
B6: SH3RF2 RING domain (UniProt Q8TEC5); chain DDLTLLDLLECPVCFEKLDVTAKVLPCQHTFCKPCLQRVFKAHKELRCPECRTPVFSNIEAL
B7: TRIM5 RING domain (UniProt Q9C035); chain ILVNVKEEVTCPICLELLTQPLSLDCGHSFCQACLTANHKKSMLDKGESSCPVCRISYQPENIRP
B8: VPS41 RING domain (UniProt P49754); chain KGVLVDEENICESCLSPILPSDAAKPFSVVVFHCRHMFHKECLPMPSMNSAAQFCNICSAKNRGPGSAI
Target sequence (chain): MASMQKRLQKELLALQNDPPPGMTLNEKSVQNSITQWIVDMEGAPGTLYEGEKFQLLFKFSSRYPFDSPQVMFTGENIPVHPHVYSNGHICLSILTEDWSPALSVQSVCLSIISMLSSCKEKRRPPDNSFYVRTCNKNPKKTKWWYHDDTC
| Molecule | lacZ reporter activity |
| --- | --- |
| B1 (NEURL1 RING domain) | 3880 |
| B2 (MKRN1 RING domain) | 0 |
| B3 (RNF38 RING domain) | 0 |
| B4 (TRIM40 RING domain) | 0 |
| B5 (RNF111 RING domain) | 3720 |
| B6 (SH3RF2 RING domain) | 0 |
| B7 (TRIM5 RING domain) | 0 |
| B8 (VPS41 RING domain) | 0 |
| DHGAVGQEMCCPICCSEYVKGEVATELPCHHYFHKPCVSIWLQKSGTCPVCRCMFPPPL (PJA1 RING domain (UniProt Q8NG27)) | 0 |

Set 2
Target: Histone acetyltransferase KAT6A, both winged helices, GST fusion (KAT6A, Homo sapiens, UniProt Q92794, residues 1-181)
Technique: protein binding microarray
Form: double-stranded DNA, one strand shown
Sample: in vitro
Concentration: not given
Setting: 8-mer, flanks averaged, mean of 2 arrays, mostly near background
Baseline: not given
Direction: higher = stronger binding
Construct (chain): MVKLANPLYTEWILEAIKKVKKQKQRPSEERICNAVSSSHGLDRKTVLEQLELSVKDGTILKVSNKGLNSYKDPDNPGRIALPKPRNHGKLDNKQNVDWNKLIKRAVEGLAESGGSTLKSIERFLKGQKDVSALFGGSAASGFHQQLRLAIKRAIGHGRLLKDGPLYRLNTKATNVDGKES
| Oligonucleotide | E-score |
| --- | --- |
| AATAAAGG | -0.126 |
| CCTTCCGC | 0.239 |
| ATTTGTTA | 0.0686 |
| CGCTTTAG | 0.126 |
| CTAACACC | -0.129 |
| ATCGGCAC | 0.195 |
| CAGAACGG | 0.013 |
| AGCCCCAG | -0.141 |

Set 3
Target: Phosphate system positive regulatory protein PHO4, full length, GST-tagged (PHO4, Saccharomyces cerevisiae, UniProt P07270, residues 1-312)
Technique: competition protein-binding microarray
Form: double-stranded DNA, one strand shown
Sample: in vitro
Concentration: 2 µM
Setting: whole 60-bp probe, lowest competitor level
Together with: Cbf1 competitor, 0.05 µM
Direction: higher = stronger binding
Construct (chain): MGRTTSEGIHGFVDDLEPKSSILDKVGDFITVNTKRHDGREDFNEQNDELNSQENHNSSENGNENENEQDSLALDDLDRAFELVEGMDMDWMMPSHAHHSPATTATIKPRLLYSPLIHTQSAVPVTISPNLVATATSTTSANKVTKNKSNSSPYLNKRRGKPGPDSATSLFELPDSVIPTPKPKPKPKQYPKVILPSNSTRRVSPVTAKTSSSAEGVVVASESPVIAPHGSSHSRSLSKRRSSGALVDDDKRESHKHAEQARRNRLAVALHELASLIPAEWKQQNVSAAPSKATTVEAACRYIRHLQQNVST
| Oligonucleotide | fluorescence intensity [a.u.] |
| --- | --- |
| AGCTTGAGCCAAGACATCGTGACAAACAATAATAGGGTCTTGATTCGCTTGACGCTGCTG | 9030 |
| GTCCTGGAAGCCTGACGCGTGCGATCTTCTCCTCCCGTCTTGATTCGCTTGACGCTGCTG | 9490 |
| GTCTTGTCTCATTTTCACGTGGGGTTCCCCACTTCAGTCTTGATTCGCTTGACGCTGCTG | 14500 |
| ATCCAGAACATTTTGCACGTGTTCCTTATACAGTCGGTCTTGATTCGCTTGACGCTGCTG | 16900 |
| CGAATACGGGCGGCATTCGTGATGGCAATAGATTTAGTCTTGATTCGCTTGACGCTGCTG | 4530 |
| CTAACGAAGGTTTTTCACGTGCATTACAAGCCAAGTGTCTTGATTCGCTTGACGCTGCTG | 15000 |
| GCTCAAATAAAAGGACACGTGGTCAACCCTCAATCAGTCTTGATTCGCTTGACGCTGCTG | 18600 |
| AAAAAAAAATGTGAAAACGTGATGGCATTTTTTACAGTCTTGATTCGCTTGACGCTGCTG | 15000 |

Set 4
Target: HLA class I histocompatibility antigen, A alpha chain, allele A*80:01 (Homo sapiens, UniProt P04439)
Effect on: peptide-MHC binding
Form: peptide
Concentration: concentration not given
| Molecule | binding |
| --- | --- |
| QVNDVLHSV | inactive |
| ITAVNRYFK | inactive |
| SLVAIHLAC | inactive |
| QLEVRSTEV | inactive |
| VVSEIDLQW | inactive |
| RFLTHYFTK | inactive |
| ILNSDDEQA | inactive |
| SHDLAPQFL | inactive |
| HPLARTAKV | inactive |
| MPFDPSELV | inactive |
| KPKALSEAF | inactive |
| EFKSRFFVM | inactive |
| GHMMVIFRL | inactive |
| AIDDFCLFA | inactive |
| ITNPFFYQM | inactive |
| RLAPEPVYT | inactive |
| IESNPLFPV | inactive |
| YLDNVGVHI | inactive |
| ETIFTVLAL | inactive |
| LELIGNAES | inactive |
| VHYGQGWLY | active |
| LLIQGLKTV | inactive |
| LSDAIFDDL | inactive |
| RAFWGQVQK | inactive |
| TTDDSTSYY | inactive |

Some of these lines once more (set 4):
| Molecule | binding |
| --- | --- |
| SLVAIHLAC | inactive |
| QLEVRSTEV | inactive |
| VVSEIDLQW | inactive |
